Results pooled from the literature.
Every numbered part comes from another study and shows a few of its results, in no order.

Sample 1
Target: Interferon regulatory factor 3, full length, phosphomimetic (IRF3, Homo sapiens, UniProt Q14653, residues 1-427, S386D/S396D/S398D/S402D/T404D/S405D)
UniProt Q14653, sequence (whole entry, unmodified, looked up): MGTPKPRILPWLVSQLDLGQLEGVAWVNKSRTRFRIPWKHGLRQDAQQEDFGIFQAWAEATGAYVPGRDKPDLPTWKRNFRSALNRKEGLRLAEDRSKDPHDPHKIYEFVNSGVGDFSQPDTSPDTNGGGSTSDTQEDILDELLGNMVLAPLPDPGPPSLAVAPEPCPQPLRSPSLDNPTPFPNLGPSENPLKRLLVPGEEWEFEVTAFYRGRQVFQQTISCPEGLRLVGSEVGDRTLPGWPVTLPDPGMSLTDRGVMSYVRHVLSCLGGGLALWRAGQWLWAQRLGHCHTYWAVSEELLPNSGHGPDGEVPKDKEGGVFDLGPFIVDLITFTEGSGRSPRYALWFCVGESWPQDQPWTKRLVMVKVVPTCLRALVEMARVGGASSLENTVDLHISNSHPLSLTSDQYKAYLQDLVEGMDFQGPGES
Technique: protein-binding microarray
Form: double-stranded DNA, one strand shown
Medium: in vitro
Concentration: 2540 nM top
Setting: 60-bp whole probe
Together with: salmon DNA 0.4 mg/ml
Relative to: random background probes
Reading: higher = stronger binding
Quantity: fitted relative affinity
Shared flanks, not repeated: GCCTAGCAC … GTCTTGATTCGCTTGACGCTGCTG
Strand = TTAAATTTCAGTTCCGATTAGTGCTAG; value = 3.85 z-score
Strand = GATAATTTTTTTCTAAGTAAGTGCTAG; value = 0.403 z-score
Strand = CATTTTCTCTTATTCTAACAGTGCTAG; value = 4.25 z-score
Strand = GACGATCTCAGACTAGAGACGTGCTAG; value = 0.375 z-score
Strand = TTAGGACTGGGGTTTCGGTGAGTGCTA; value = 0.921 z-score
Strand = CTGTTTTTGCTTTCTTTATGGTGCTAG; value = 2.71 z-score

Sample 2
Target: Prothrombin, mature alpha-thrombin (F2, Homo sapiens, UniProt P00734)
Technique: aptamer microarray, sandwich
Form: DNA with 2'F-ANA
Medium: in vitro
Concentration: 200 nM
Setting: whole 15-mer aptamer, many near background
Together with: Cy3 exosite-II aptamer, 400 nM
Reading: higher = stronger binding
Quantity: mean fluorescence intensity
Strand: GGTTGGTGTGGTTGG
Modification = 2'F-ANA at 1 2 4 10 11 12 15; value = 57.7 a.u.
Modification = 2'F-ANA at 1 2 5 8 9 11; value = 187 a.u.
Modification = 2'F-ANA at 2 4 6 8 12 13 14 15; value = 120 a.u.
Modification = 2'F-ANA at 1 3 4 5 7 11 12 14; value = 123 a.u.
Modification = 2'F-ANA at 5 6 7 9 10 11 14; value = 46.3 a.u.
Modification = 2'F-ANA at 3 4 7 8 9 11 12 13 15; value = 663 a.u.

Sample 3
Target: RNA binding protein fox-1 homolog 2, RRM domain, GST-SBP tag (RBFOX2, Homo sapiens, UniProt O43251-10, residues 100-194)
Technique: RNA Bind-n-Seq
Form: RNA
Medium: in vitro
Concentration: 365 nM
Setting: natural RNA segment, single round, ends assumed
Relative to: no-protein control
Reading: higher = stronger binding
Quantity: RBNS enrichment (R)
Shared flanks, not repeated: GGGAGUUCUACAGUCCGACGAUC … UGGAAUUCUCGGGUGCCAA
Construct (chain): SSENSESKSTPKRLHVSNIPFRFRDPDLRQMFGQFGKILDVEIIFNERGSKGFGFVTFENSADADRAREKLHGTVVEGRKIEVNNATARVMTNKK
Strand = ACCCAGCUUGUGCCAUUGGGCAUUGAUGGCAUUGAACUAGAGCGAGUGCCUGCCUCGGCUGUGGCACUUCCAGGUUCGACUGAAUCAAGCAUCUGAAGACUGGGUUUUUU; value = 0.995
Strand = GCCAGCAGAGCCCGGGGCUCACUCUCCUUUCAGUCAUUCCUCAGCCCUUCGAAGGGAAGCCCAAACACUUUGCACGCUGUGCUGCAGACAUUCUGGCCUGGUGUGUCUGA; value = 0.706
Strand = UGUAGACGAGUCCCCGACUCUGGGAUACAUGAGGAUCAAUGCCCGUUUUCUCCCCGUGUGCUUUCCUGCAGAAUCCUUGCCUUUCCGUUGUUAGGUUGGGUUUUCUAUAU; value = 0.291
Strand = GCCGAAUCCUUCCCUCCAGCCCGAGACUACAAGAAGAAACAGACUUUGGCCUGGUCCCAGGGGCCAGAGCUGGCAGUGGCUCCCAGAGCUCUGUCCAGCCACAAGUUUGA; value = 0.257
Strand = ACCCACAGAUAACACAUGUUGUUUCUACUUGUAAAUGUAAAGUCUUUAAAAUAAACUAUUACAGAUACUUACGUUGUGGUGUUUCUUUCCUCAUGGACCAUGAUGAAAAU; value = 0.303

Single results of other studies
Molecule = PhoQ, residues 284 288 289 292 302 303 SMYGEC; target = PhoP, residues 12 14 15 18 19 AQALL (Escherichia coli, UniProt P23836); assay = Sort-seq, measured: YFP reporter; test system = E. coli; conditions = PhoQ-PhoP variant library, together with: 10 µM Mg2+; scale = relative to: high Mg2+ state, higher = stronger signaling; quantity = fold induction; value = 6.85

For quick reference, copied from above (sample 3):
Strand = ACCCACAGAUAACACAUGUUGUUUCUACUUGUAAAUGUAAAGUCUUUAAAAUAAACUAUUACAGAUACUUACGUUGUGGUGUUUCUUUCCUCAUGGACCAUGAUGAAAAU; value = 0.303
Strand = UGUAGACGAGUCCCCGACUCUGGGAUACAUGAGGAUCAAUGCCCGUUUUCUCCCCGUGUGCUUUCCUGCAGAAUCCUUGCCUUUCCGUUGUUAGGUUGGGUUUUCUAUAU; value = 0.291
